Published values collected from several papers.
Numbered parts are unrelated; each lists some results of a single study. Substitutions count along the parent as printed.

Series 1
Target: CCND2, cyclin fold, Cln2 fusion (human)
Technique: yeast growth competition, sequencing
Medium: yeast
Setting: weak parent motif
Relative to: not given
Reading: higher = stronger binding
Starting sequence: RBL1 docking peptide (human); GSAKRRLFGEDPP
| Substitution | normalised enrichment score |
| --- | --- |
| GSAKRRLFGETPP [D11T] | 0.302 |
| RSAKRRLFGEDPP [G1R] | 0.51 |
| GSAKRRLFGEDAP [P12A] | 0.591 |
| GSAKRRDFGEDPP [L7D] | -0.154 |
| GSAKRRLPGEDPP [F8P] | 0.264 |
| GSAKRRLAGEDPP [F8A] | 0.0278 |
| GSAKRRLFGEGPP [D11G] | 0.347 |
| GSAWRRLFGEDPP [K4W] | 0.00987 |
| GNAKRRLFGEDPP [S2N] | 0.0739 |
| GSAKRRLFWEDPP [G9W] | 0.623 |
| GSAKRRLFGEDTP [P12T] | 0.313 |
| GSAKRRRFGEDPP [L7R] | -0.0793 |
| GSANRRLFGEDPP [K4N] | 0.199 |
| GSAKRRLFGEDPA [P13A] | 0.105 |
| SSAKRRLFGEDPP [G1S] | 0.246 |
| GSAKRRSFGEDPP [L7S] | 0.0667 |
| GSGKRRLFGEDPP [A3G] | 0.243 |
| GSAKRRLFGDDPP [E10D] | 0.479 |
| GSAKRRLFGEDPI [P13I] | 0.434 |
| GSNKRRLFGEDPP [A3N] | 0.0333 |
| NSAKRRLFGEDPP [G1N] | -0.12 |
| GSAKRRLLGEDPP [F8L] | 0.284 |
| GSAKRRAFGEDPP [L7A] | 0.112 |
| GSAKKRLFGEDPP [R5K] | -0.0978 |
| GSAKRRLFGENPP [D11N] | 0.348 |

Series 2
Target: Interferon regulatory factor 7, full length, phosphomimetic (IRF7, Homo sapiens, UniProt Q92985, residues 1-503, S101K/S471D/S472D/S475D/S476D/S477D/S483D/S484D/S487D)
Sequence of UniProt Q92985 (whole entry, unmodified, looked up): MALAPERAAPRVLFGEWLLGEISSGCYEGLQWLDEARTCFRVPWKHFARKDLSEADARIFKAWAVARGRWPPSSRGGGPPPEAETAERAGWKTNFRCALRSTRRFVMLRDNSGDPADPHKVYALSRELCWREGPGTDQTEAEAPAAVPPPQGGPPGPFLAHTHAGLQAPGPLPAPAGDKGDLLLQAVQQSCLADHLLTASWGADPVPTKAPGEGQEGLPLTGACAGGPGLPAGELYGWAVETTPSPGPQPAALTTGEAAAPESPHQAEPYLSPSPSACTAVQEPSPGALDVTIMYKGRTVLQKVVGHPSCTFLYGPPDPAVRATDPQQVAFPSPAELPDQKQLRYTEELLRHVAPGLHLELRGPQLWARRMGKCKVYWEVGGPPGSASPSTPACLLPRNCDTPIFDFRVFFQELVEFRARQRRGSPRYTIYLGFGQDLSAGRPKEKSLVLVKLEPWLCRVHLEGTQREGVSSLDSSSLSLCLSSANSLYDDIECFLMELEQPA
Technique: protein-binding microarray
Molecule type: double-stranded DNA, one strand shown
Medium: in vitro
Concentration: 250 nM
Setting: 60-bp whole probe
With: salmon DNA 0.4 mg/ml
Relative to: random background probes
Reading: higher = stronger binding
Shared flanks, not repeated: GCCTAGCAC … GTCTTGATTCGCTTGACGCTGCTG
| Oligonucleotide | log fluorescence [z-score] |
| --- | --- |
| CTGCTGCAGGCAGCACGCTGGTGCTAG | -0.827 |
| GACGGTTTCGCTTCCGGGACGTGCTAG | 10.6 |
| TCATACATGTGTTTAAGACTGTGCTAG | 0.0562 |
| ATCTCTGTCCGTGCTCAGCTCGTGCTA | -0.249 |
| TTAGGACCGGGGTTTCGGTTAGTGCTA | 5.85 |
| TCAAGTCCCATGTTGCAGACTGTGCTA | 0.913 |
| TCACCTCTTTCACTGGTACTGTGCTAG | 0.821 |
| CACATCTGCTGTGGGAGCACGTGCTAG | -0.223 |
| TTAGGACTGGGTCTTGGTTAGTGCTAG | -0.32 |
| TCATCTTTCTGTTTTCTACTGTGCTAG | 1.77 |
| TTAGATCTCAGTATCGATTAGTGCTAG | 0.99 |
| GACGGTCTTCTTCTCCTGACGTGCTAG | 0.265 |
| TTGGGTATCCTTATCCTTTAGTGCTAG | -0.0976 |
| TTAGGTATCGGGACTGGGTTGGTGCTA | 0.238 |
| GACGGTTTCGGTTTCTGGACGTGCTAG | 14.1 |
| TTAGAACTGAGACTGGATAAGTGCTAG | -0.246 |
| GACGGACTGGGGAGTGGGGACGTGCTA | -0.736 |

Series 3
Target: ABI1, truncated, D143A, DHFR fusion (Arabidopsis thaliana)
Technique: DHFR PCA, deep sequencing
Medium: yeast
Setting: methotrexate growth selection, single substitutions
With: (+)-ABA 4.8 µM
Relative to: wild-type fitted maximum
Reading: higher = stronger binding
Starting sequence: PYL1, truncated, DHFR fusion (Arabidopsis thaliana); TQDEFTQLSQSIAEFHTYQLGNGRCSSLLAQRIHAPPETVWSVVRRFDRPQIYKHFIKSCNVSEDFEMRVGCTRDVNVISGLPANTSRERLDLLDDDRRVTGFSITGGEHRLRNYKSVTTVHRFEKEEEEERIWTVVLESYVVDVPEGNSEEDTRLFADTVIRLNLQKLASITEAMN; partner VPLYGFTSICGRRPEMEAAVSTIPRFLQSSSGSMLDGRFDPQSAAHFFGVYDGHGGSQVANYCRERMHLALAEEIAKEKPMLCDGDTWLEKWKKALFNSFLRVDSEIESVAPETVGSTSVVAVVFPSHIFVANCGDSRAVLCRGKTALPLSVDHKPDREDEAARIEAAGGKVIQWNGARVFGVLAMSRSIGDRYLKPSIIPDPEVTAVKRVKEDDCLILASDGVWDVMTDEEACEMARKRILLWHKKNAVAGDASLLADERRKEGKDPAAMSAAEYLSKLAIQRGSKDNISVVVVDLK
| Substitution | relative binding score |
| --- | --- |
| G23C | 25.6% |
| R90F | -3.2% |
| Q31E | 12.8% |
| R90G | -9.54% |
| L138R | 2.98% |
| V43M | 42.1% |
| S87M | 23.8% |
| N61L | 68.2% |
| R123D | 54.5% |
| S80G | 12.3% |
| K58G | 24% |
| D3K | 56.4% |
| V40M | -10.9% |
| P36H | 67.2% |
| G148S | 29.7% |
| L20V | 81.9% |
| T17H | 53.4% |
| V161D | -7.15% |

Series 4
Target: Histone acetyltransferase KAT6A, both winged helices, GST fusion (KAT6A, Homo sapiens, UniProt Q92794, residues 1-181)
Technique: protein binding microarray
Molecule type: double-stranded DNA, one strand shown
Medium: in vitro
Concentration: not given
Setting: 8-mer, flanks averaged, mean of 2 arrays, mostly near background
Relative to: not given
Reading: higher = stronger binding
Residues (chain): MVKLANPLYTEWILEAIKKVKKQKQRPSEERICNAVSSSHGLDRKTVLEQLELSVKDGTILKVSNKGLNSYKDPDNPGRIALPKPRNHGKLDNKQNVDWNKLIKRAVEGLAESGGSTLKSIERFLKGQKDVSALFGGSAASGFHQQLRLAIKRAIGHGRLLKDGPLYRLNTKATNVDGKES
| Oligonucleotide | E-score |
| --- | --- |
| AACCTGCC | -0.128 |
| TGTAGACA | -0.195 |
| CGTTTATC | 0.181 |
| CTCTCACC | -0.0215 |
| CGATGCGA | 0.163 |
| TCTCCTCA | -0.0648 |
| GAATTATC | -0.206 |
| GGATCTAC | -0.205 |
| ACTGAGAA | -0.012 |
| GGGATGAA | -0.146 |
| GCAGCTTA | 0.00338 |
| CGGAGCAC | 0.119 |
| GAGTAACC | 0.0341 |
| CAAGGACC | -0.111 |
| CGATTGAA | -0.0209 |
| CTTTCTGC | 0.0536 |
| ACCACTAC | -0.156 |
| CTGTTGCC | -0.115 |
| CTCTACTC | -0.146 |
| ACATAGGC | -0.144 |
| TTAAGCAA | -0.00468 |
| ATCGAAAT | 0.0475 |
| AGGTGCCC | -0.0393 |
| CACAACTA | 0.025 |
| CGCTTGAG | 0.17 |
